Measured values pooled from the literature.
Parts stem from different laboratories: compare values within a part only. Changes are numbered by the printed parent chain.

Block 1 — method: RNA Bind-n-Seq; form: RNA; sample: in vitro; concentration: 365 nM; baseline: no-protein control; reading: higher = stronger binding
Target: RNA binding protein fox-1 homolog 2, RRM domain, GST-SBP tag (RBFOX2, Homo sapiens, UniProt O43251-10, residues 100-194)
Notes: natural RNA segment, single round, ends assumed
Construct (chain): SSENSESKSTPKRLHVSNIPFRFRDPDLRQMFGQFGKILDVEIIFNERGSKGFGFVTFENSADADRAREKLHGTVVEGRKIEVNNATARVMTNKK
| Sequence | RBNS enrichment (R) |
| --- | --- |
| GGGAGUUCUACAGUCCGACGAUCGAGAAAAAGAUACUGUUGAUAAUCCUGUCAGCUCCUUAGGCACUUCGGAGGCUGAGGCAGGAGAAUCAAAAAUUCAAGGCCACUUAGCAAGACCCCAUGUCAAAAUUAUAUGGAAUUCUCGGGUGCCAA | 0.574 |
| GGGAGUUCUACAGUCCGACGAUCCACCCUACGAAGGCCAUGCUGUGCAAACGUGCUCAGGAUCUCAGUAACGGGCCAACCCCCAACUACAGAUGACUUUUUAAUAUUGUAAAAUAUUUUCUGCUUUUUUGACUUGGAAUUCUCGGGUGCCAA | 0.556 |
| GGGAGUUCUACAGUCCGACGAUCUUUGGUACAUUUUCAUAAAAUAUGAAGGGAUAACUACAAACUGGAGUAAAAAUGAUGGUAAUUAAAAAAAAUCCUCAGUAUCCCUAGCUUGUCUAUUAACUGUGAUAAUCUGGAAUUCUCGGGUGCCAA | 0.448 |
| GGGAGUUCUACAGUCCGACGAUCCCAUCAGCAAUACCUGGUGUUCUCCCACCUUGAAAGGACUCUUGGCUCCUGCCGGGUUCCUGCUCAGGCUGGAAUUGGGAAAAUAUGCAGGUGACAUUUGUUCAUUCUCUUGGAAUUCUCGGGUGCCAA | 0.28 |
| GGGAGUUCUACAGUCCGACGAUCCACUACACAUAAAUCUCAUAAUCUUUUUGUCUUUGGAGAUUCCAUUGUGGACAGUAAUACGCAGUUACAGGGUGUAGUCUGUUUAGAAUCCGUAGUUUGUGGGUAUCAGUUGGAAUUCUCGGGUGCCAA | 0.531 |
| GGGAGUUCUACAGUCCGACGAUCUGCUUCAUCACCACUUCCAUCUUGCAUCACCUUAUAACUGUUCUGUCUUGUUCUCUCCCAGCAAUUUAUUUUAAAACAAGGGCUAGCUUCAAGCAUGACUGUUAAUGGCUUGGAAUUCUCGGGUGCCAA | 1.64 |
| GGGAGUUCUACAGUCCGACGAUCUGAAGGAACCAAUAUUUGGACCUUAUUUUGAGGUUGUCUGUCUCGAAGAAAAAGAAAAUAAAAUGUAUAGGCAGGGUUCCUUCAAUUGGCAUUUUCCCCAGAAUUGUGAGUGGAAUUCUCGGGUGCCAA | 0.844 |
| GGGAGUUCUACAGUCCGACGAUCAGCAGGUCCCCAGGGGCCUGCAGGGAAUCUUUCAGCUGCACGGAUUGGGAUUUCCCUCCAAACCAAACUGUCCUUUAAGGGGCAGCCUCCUCUUUUACUAACUCCACCCUUGGAAUUCUCGGGUGCCAA | 0.621 |
| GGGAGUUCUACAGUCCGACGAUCAAUACCCUUUGUGCCCUCAAGAAUUAAAAGCCUCUAUGAUCCAGAGUUGCUAUGCACCAAAUUUUGAUGCCUUCUAAAUACCUUGAUGCCUGUAGCACUAGAAAUGCUUUUGGAAUUCUCGGGUGCCAA | 0.619 |
| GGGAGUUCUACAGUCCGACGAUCUUCAUAUUACAAAACAGUUUUACACUUAAUAUGUUAACAUUGGGUGCAAUAAUUUAGUAGCAUUAGCUUUAGUUACAAAUAUAACUGGAUCUUUCUGCUGACAACUUAGGUGGAAUUCUCGGGUGCCAA | 0.31 |
| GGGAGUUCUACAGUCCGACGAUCGAGAUUCCUAAUCACUAGUUUCUUGUAUUCAUAAACUCAGAGAUACAGAGGGCUUGGUUUGAAGUUGGGGUGAGAUGAAACCUUUGCUCUGAGCCAAAGCUCUGGGGCCUUGGAAUUCUCGGGUGCCAA | 0.359 |
| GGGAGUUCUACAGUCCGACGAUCGACAUCCAUAAGGAAUGCCAAAUGCUGUAUUGAAUAGUUCUCCUGUGUGACUUUCUAGAGAAGCCAGGACACCCCUGAGCCUUUCCUGGGAACUCCUAAGGAAGUCACAGUGGAAUUCUCGGGUGCCAA | 0.243 |

Block 2 — method: aptamer microarray, sandwich; form: DNA with 2'F-ANA; sample: in vitro; concentration: 200 nM; together with: Cy3 exosite-II aptamer, 400 nM; reading: higher = stronger binding; sequence: GGTTGGTGTGGTTGG
Target: Prothrombin, mature alpha-thrombin (F2, Homo sapiens, UniProt P00734)
Notes: whole 15-mer aptamer, many near background
| Modification | mean fluorescence intensity |
| --- | --- |
| 2'F-ANA at 1 4 5 10 11 13 | 93.3 a.u. |
| 2'F-ANA at 1 2 5 8 9 12 14 | 48.2 a.u. |
| 2'F-ANA at 1 2 7 10 | 77.9 a.u. |
| 2'F-ANA at 1 2 3 5 6 8 10 13 14 15 | 51.7 a.u. |
| 2'F-ANA at 2 4 5 6 7 8 11 14 15 | 45.3 a.u. |
| 2'F-ANA at 1 2 5 6 9 11 12 13 14 15 | 50 a.u. |
| 2'F-ANA at 2 3 4 7 8 9 11 12 14 15 | 317 a.u. |
| 2'F-ANA at 3 5 6 8 10 11 12 13 | 92.9 a.u. |
| 2'F-ANA at 2 9 10 12 13 | 163 a.u. |
| 2'F-ANA at 3 4 5 8 9 11 12 13 14 15 | 52.9 a.u. |
| 2'F-ANA at 1 2 5 7 8 11 15 | 54.5 a.u. |
| 2'F-ANA at 1 5 7 8 10 12 14 15 | 46.3 a.u. |
| 2'F-ANA at 2 3 6 7 9 10 11 12 13 14 15 | 222 a.u. |
| 2'F-ANA at 4 5 7 8 10 11 | 48.9 a.u. |
| 2'F-ANA at 1 3 5 6 7 8 11 12 13 15 | 86.2 a.u. |
| 2'F-ANA at 2 6 8 10 11 15 | 115 a.u. |
| 2'F-ANA at 1 3 12 15 | 539 a.u. |
| 2'F-ANA at 1 3 4 5 9 11 12 13 14 15 | 51 a.u. |
| 2'F-ANA at 1 2 7 9 12 13 | 282 a.u. |
| 2'F-ANA at 3 4 5 7 10 11 12 13 14 | 49.2 a.u. |
| 2'F-ANA at 1 2 4 5 6 11 15 | 48.5 a.u. |
| 2'F-ANA at 2 7 8 9 10 11 12 13 | 175 a.u. |
| 2'F-ANA at 4 5 6 7 8 10 11 12 13 14 15 | 48.5 a.u. |
| 2'F-ANA at 1 2 3 5 7 9 11 12 13 14 | 61.4 a.u. |
| 2'F-ANA at 1 3 5 6 7 8 9 11 12 13 14 15 | 54.7 a.u. |

Block 3 — target: CCND1, cyclin fold, Cln2 fusion (human); method: yeast growth competition, sequencing; sample: yeast; notes: weak parent motif; baseline: not given; reading: higher = stronger binding
Parent: ANKRD17 docking peptide (human); PSVRRQLFVTVVK; partner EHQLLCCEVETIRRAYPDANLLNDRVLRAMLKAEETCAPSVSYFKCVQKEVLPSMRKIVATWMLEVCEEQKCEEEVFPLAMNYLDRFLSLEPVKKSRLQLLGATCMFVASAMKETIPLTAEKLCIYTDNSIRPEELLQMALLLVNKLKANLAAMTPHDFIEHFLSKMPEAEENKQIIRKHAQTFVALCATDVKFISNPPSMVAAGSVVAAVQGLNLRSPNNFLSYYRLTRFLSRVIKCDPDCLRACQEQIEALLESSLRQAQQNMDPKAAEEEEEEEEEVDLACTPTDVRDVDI
| Substitution | normalised enrichment score |
| --- | --- |
| Q6A | -0.179 |
| T10A | 0.796 |
| V11A | 0.594 |
| S2A | 0.296 |
| F8A | 0.226 |
| R5K F8L | 0.541 |
| V3A | 0.924 |

Block 4 — method: RNA Bind-n-Seq; form: RNA; sample: in vitro; concentration: 1 µM; notes: whole 134-nt RNA, ends assumed; together with: 150 mM KCl; baseline: input library; reading: higher = stronger binding
Target: Ras GTPase-activating protein-binding protein 1, RRM domain (G3BP1, Homo sapiens, UniProt Q13283)
Sequence of UniProt Q13283 (whole entry, looked up): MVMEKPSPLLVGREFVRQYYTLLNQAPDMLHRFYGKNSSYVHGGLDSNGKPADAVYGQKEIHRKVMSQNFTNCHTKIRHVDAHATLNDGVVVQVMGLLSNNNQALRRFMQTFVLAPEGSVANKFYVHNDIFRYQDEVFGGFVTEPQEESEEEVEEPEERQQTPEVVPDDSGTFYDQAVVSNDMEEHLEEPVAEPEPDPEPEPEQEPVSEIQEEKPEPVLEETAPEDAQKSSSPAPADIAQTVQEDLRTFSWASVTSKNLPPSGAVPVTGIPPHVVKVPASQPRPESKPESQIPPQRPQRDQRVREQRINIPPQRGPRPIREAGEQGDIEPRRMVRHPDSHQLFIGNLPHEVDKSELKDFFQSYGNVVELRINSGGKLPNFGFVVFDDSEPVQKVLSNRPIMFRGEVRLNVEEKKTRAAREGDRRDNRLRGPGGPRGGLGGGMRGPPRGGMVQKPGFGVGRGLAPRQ
| Sequence | log2 enrichment |
| --- | --- |
| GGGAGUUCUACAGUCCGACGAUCCUGUGCUACACAUCGUAUGUACCGAAUCGGGGAAAAAGGGGAAAAAGGGGUUUUUUUGGGGAAAGUAUUAUGUUACGCCGUUCGGAUCUGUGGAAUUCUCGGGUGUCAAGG | 1.15 |
| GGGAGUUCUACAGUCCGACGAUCUUCGAAGAGGUUGUGUACCAGGCCAUGGGUGAGUGCCCGGGCCACCGAGGCCACGUGCCUCCACGAGGGGCUGCCUAUGCCCCACCCUGGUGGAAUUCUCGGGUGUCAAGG | -0.617 |
| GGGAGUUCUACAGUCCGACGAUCUGUGCUACACAUCGUAUGUACCGAAUCGGGAAAAAAAGGGGAAAAAAAGGGGAAAAAAAGGGAAAGUAUUAUGUUACGCCGUUCGGAUCUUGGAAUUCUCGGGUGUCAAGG | 0.134 |
| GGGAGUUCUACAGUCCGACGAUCUCCUCAAGUCCUGUGCUACACAUCGUAUGUACCGAAUCGGUGGGUGGGUGGAAAGUAUUAUGUUACGCCGUUCGGAUCUGCACUUCCAGCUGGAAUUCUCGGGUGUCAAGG | -0.123 |
| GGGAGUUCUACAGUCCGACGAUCAAGUCCUGUGCUACACAUCGUAUGUACCGAAUCAAAUUUAAAUUUAAAUUUUUAAAAAAGUAUUAUGUUACGCCGUUCGGAUCUGCACUUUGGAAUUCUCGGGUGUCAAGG | -0.636 |
| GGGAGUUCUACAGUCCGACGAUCUUAGAAGAAUUUGGAAGGCCUUAAAUAUAGUAGCUUAGUUUGAAAAAUGUGAAGGACUUUCGUAACGGAAGUAAUUCAAGAUCAAGAGUAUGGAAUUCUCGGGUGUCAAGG | -0.167 |
| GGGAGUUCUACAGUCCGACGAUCCACAGACAACACGCACCCACACGGACACAGAGGGAAGGGGUUGGGAUGGGGACAGGGUGCACAGCAGGGCGGGGUAGGACCCCAGCCCCUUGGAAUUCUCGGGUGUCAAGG | -0.038 |
| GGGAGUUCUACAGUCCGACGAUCGCAGGAAGUAAAAACAAAUGGAAAUGCUUCGGAUAGUGGCAGGGGUGGGGGUUGCUAAGGAAAGGGUGGGAUGGGAGCGGGUAAAGAGUUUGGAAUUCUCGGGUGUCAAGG | 1.26 |
| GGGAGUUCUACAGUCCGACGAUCUGGGAGGUGGAUUUUUUUUAUUUUUUUAGCUCAUUUCCAGGGGUGGGAAUUUUUUUUUAAUAUGUGUCAUGAAUAAAGUUGUUUUUGAAAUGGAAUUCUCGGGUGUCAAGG | 1.94 |
| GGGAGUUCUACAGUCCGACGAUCCCUGUGCUACACAUCGUAUGUACCGAAUCGGGGUUUUUUUGGUUUUUUUGGUUUUUUUGGAAAGUAUUAUGUUACGCCGUUCGGAUCUGCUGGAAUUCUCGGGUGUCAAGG | -0.105 |
| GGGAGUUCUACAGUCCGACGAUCUGGGAGGUGGAUUUUGUUUAUUUUUUUAGCUCAUUUCCAGGGGUGGGAAUUUUUUUUUAAUAUGUAUCAUGAAUAAAGUUGUUUUUGAAAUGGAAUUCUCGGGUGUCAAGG | 1.55 |
| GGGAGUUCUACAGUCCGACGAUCACCAUGCAGGUGGGCAUCUUUGGGAAGUGGGGCAAGGGGGGGAUAGGGAGGGGGGUAACACUUUGGGACCAGGUGGUCCCAGGUCGUUUCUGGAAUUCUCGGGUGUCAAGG | 0.988 |
| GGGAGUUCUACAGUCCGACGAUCCUGUGCUACACAUCGUAUGUACCGAAUCGGGUUUUUUUGGUUUUUUUGGGGUUUUUUUGGGGAAAGUAUUAUGUUACGCCGUUCGGAUCUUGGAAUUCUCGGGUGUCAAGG | -0.245 |
| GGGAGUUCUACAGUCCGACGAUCAGUCCUGUGCUACACAUCGUAUGUACCGAAUCGGAAAAAAAGGUUUGGAAAAAAAGGAAAGUAUUAUGUUACGCCGUUCGGAUCUGCACUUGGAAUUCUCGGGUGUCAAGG | -0.171 |

Repeated from above (block 3):
| Substitution | normalised enrichment score |
| --- | --- |
| T10A | 0.796 |
| V11A | 0.594 |
| S2A | 0.296 |
| F8A | 0.226 |
| R5K F8L | 0.541 |
| V3A | 0.924 |
